# Experimental data of several laboratories.
# Each numbered part is a random draw from the data of one study; scales do not carry over between parts. Positions count from the first letter of the parent shown.
# UniProt O15294, sequence (whole entry, looked up): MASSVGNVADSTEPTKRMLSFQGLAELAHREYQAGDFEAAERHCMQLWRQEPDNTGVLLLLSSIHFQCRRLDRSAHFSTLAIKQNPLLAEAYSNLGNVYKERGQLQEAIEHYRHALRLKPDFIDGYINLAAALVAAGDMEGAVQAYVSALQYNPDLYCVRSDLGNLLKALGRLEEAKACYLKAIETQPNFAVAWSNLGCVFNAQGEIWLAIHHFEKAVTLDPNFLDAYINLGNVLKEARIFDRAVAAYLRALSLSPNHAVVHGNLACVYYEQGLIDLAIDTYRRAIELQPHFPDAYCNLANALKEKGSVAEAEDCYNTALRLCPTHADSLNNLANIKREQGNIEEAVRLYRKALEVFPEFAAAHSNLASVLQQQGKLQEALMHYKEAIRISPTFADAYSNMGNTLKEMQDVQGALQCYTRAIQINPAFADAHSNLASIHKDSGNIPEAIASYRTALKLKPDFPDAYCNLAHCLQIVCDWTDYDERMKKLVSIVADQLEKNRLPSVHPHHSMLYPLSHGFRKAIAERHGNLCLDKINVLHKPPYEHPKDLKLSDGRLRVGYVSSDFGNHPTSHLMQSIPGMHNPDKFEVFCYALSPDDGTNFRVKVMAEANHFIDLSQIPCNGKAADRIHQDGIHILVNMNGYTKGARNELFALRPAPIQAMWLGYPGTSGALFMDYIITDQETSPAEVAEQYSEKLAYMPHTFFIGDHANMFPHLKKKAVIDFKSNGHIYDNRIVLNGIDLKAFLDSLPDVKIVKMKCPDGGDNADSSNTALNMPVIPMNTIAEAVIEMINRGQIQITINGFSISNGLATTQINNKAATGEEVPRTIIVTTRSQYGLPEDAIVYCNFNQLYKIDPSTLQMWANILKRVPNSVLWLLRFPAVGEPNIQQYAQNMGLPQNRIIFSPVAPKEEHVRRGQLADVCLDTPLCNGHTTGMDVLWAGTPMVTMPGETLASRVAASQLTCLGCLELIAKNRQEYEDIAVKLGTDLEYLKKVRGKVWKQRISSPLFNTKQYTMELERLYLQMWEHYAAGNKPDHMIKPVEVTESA

# Sample 1 — technique: RNA Bind-n-Seq; form: RNA; medium: in vitro; concentration: 365 nM; relative to: no-protein control; direction: higher = stronger binding
# Target: RNA binding protein fox-1 homolog 2, RRM domain, GST-SBP tag (RBFOX2, Homo sapiens, UniProt O43251-10, residues 100-194)
# Notes: natural RNA segment, single round, ends assumed
# Constant ends, left off below: GGGAGUUCUACAGUCCGACGAUC … UGGAAUUCUCGGGUGCCAA
# Target sequence (chain): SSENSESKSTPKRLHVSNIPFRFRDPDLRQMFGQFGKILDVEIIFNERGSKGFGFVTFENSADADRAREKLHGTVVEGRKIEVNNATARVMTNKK
Strand,RBNS enrichment (R)
UGAAGAAAUCUCAAGCUCCCAAUUUUGGUUGCACUUUACGAACAUGCUCACUUCGUUAGCAUUUCUGAGCCAGAGGCUGGCUCCCUCCCGUGGGGAUCUGGGAGCUGGCA,0.382
ACAGGAGGCCACAAACAACCUAACAAAACCUAGGAGACCCAGCCAAGUAAAGUCCCGAGGACUGGUCGCAGUGUUCAGCCCUUCCUCCUAGGGUCAGGGAAGGUGGUCUG,0.428
UUCCCAAAUUAACAAAGCAAACUGAAAUAAUACCUUGAAUAACAGGUUGCCUGUGGUCUCUGUCAUCCUCGUUUCUCUUCUGAAAUGAAUUUCCACCUCUGCCUUUAAGG,0.611
UUAUCACCAAUGUAUAUCUCCAUUUAUUCAAUAACUUACUGGGGUAAAAUAACAGCAAUAAACCUAACCUUUUAACAGGGUCUAACAUGAGAGUUGGAGUCAAAGCCAUU,0.692
GUGUUGUGUAUGGGCUGCUAAUUGUUAUGAAUAAAAUACCCAACCCUAGGCUGCAGAGAAGCCCGUCCAUUUGGUCUAACCUGAGUCUCUGCGCUACACCUCACAAGCAC,0.877
UAUAGAUUUAGCUAUUUAUUGUUCGAUGCCUGCAUGCUGAAACAAUGCCUACAGCUGUCUUCACAUGUAUGGACGUGUGUGAAUGGUUGUACGUUUUGCACAUUUUGUGG,1.56
GCUGGGGCCCCUCUGUCUCAACCCGCAGACCCUUGACUGAAUGAGAGAGGCCAGAGGAUGCUCCCCAUGCUGCCACUAUUUAUUGUGAGCCCUGGAGGCUCCCAUGUGCU,0.32
GGGUGGACAGUCCUAAUGGGGAUCUCCAGCUCCUUCCUGUGGGCUGCCACAGACAGCUACCCCCAGAAGGGUCAAUGUUGGGAGUGGUUGUGGCUCUGAGCUGCUCUACA,0.73

# Sample 2 — technique: protein-binding microarray; form: double-stranded DNA, one strand shown; medium: in vitro; concentration: 0.8 µM; notes: whole 60-bp probe, no competitor; direction: higher = stronger binding; constant ends, left off below: … GTCTTGATTCGCTTGACGCTGCTG
# Target: Centromere-binding protein 1, full length, N-terminal tag (CBF1, Saccharomyces cerevisiae, UniProt P17106, residues 1-351)
# UniProt P17106, sequence (whole entry, looked up): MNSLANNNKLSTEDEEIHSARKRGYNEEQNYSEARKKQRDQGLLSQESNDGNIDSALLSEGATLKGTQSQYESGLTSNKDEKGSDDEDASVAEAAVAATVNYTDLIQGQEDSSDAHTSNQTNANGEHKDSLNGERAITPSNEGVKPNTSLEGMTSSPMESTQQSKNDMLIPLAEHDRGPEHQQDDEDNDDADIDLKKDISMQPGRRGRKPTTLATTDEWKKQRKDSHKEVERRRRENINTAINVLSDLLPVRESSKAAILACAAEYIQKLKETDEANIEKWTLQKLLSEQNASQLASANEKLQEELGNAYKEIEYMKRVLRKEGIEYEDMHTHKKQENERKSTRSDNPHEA
Strand,fluorescence intensity
CTAGTACAAAATGATCACGCAACTTTTGACAATTTC,862 a.u.
CTAAGTTCTTTTATCCTGATGACTTTTTCTCATTTC,503 a.u.
CTAAATCGACCTTATGATCATGTGGATTATCGGTTC,1450 a.u.
GAATGACGGAATATTGCGATCACGTGAATTTTCTAG,17800 a.u.
CTACCCACCCATTCGCACGGGTCTTCTGTGCGATTC,558 a.u.
GAACGTTTACCGTTTCGCGTGATCAACATCACATAG,1200 a.u.
GAAACAAATTAAAGCCACGTTCATATTCTTAATTAG,559 a.u.
TGTACGAAGCTATTTAATGTGATTATAGTAGTTAGG,540 a.u.

# Sample 3 — technique: DHFR PCA, deep sequencing; medium: yeast; with: (+)-ABA 58 µM; relative to: wild-type fitted maximum; direction: higher = stronger binding
# Target: ABI1, truncated, D143A, DHFR fusion (Arabidopsis thaliana)
# Notes: methotrexate growth selection, single substitutions
# Parent: PYL1, truncated, DHFR fusion (Arabidopsis thaliana); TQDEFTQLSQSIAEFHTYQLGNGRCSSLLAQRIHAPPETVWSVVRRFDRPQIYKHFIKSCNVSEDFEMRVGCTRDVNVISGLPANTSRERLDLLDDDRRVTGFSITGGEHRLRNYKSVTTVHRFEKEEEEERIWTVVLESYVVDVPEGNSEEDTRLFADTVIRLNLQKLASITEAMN
Substitution,relative binding score
F5W,93%
D75M,88.3%
F47N,9.36%
S87H,19.3%
F56M,74.1%
V78A,42.4%
K126P,103%
N85M,87.4%

# Single results of other studies
Molecule,target,test,system,setting,how to read,measurement,value
HSPHGTGWMQGHNAH,"UDP-N-acetylglucosamine--peptide N-acetylglucosaminyltransferase 110 kDa subunit (OGT, Homo sapiens, UniProt O15294)","binding, phage display NGS",peptide,concentration not given,relative to: input library,enrichment fold change,9.7
